Measured values gathered from unrelated publications.
Protocols differ between the studies behind these lines. ± gives the spread as reported.
Nuclear receptor subfamily 2 group C member 2 ligand-binding domain: Nuclear receptor subfamily 2 group C member 2, ligand-binding domain (Homo sapiens, UniProt P49116)
Chain of UniProt P49116 (whole entry, looked up): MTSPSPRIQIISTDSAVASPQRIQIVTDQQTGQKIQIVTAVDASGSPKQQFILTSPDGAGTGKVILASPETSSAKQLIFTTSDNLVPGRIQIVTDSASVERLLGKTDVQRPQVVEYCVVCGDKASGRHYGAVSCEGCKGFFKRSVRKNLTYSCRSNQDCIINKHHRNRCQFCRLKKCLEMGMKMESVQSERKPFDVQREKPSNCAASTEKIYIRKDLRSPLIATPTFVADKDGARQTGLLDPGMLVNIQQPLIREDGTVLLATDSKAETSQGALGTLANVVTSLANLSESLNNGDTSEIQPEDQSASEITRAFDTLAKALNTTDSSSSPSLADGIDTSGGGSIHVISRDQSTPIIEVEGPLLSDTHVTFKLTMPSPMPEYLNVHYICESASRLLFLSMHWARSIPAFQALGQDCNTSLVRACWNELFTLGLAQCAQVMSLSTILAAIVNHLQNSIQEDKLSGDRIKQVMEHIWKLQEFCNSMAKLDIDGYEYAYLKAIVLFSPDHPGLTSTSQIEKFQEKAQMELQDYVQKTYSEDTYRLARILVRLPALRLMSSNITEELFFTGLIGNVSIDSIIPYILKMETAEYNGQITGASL

| SMILES | target or system | assay | system | setting | scale | quantity | value |
| --- | --- | --- | --- | --- | --- | --- | --- |
| COc1c(O)c(C)cc2c1C(=O)c1c(O)cccc1C2=O | HepaRG co-cultured with HK-2 | MTT | – | 16.67 µM, 48 h | reference: untreated control | cell viability | 55.4 ± 9.07% |
| CCCCCOc1ccc(/C=C\c2cccc(O)c2C(=O)O)cc1 | OCI-Ly1 | – | – | 1 µM, 120 h | – | viability | 170% |
| Cc1cc(Nc2ccc(S(F)(F)(F)(F)F)cc2)n2nc(C(C)(F)F)nc2n1 | Plasmodium vivax | – | human Plasmodium vivax malaria patients | oral, 600 mg | – | patients with blood or lymphatic AEs | 0% |
| COc1cc(O)c2c(c1)C(=O)c1cc(C)cc(O)c1C2=O | HepaRG co-cultured with HK-2 | MTT | – | 266.67 µM, 48 h | reference: untreated control | cell viability | 26.5 ± 5.07% |
| CC1(F)CN(C(=O)Cn2c(=O)c(C(=O)NCc3ccc(Cl)cc3)cc3nc(N4CCOC4=O)cnc32)C1 | human cytomegalovirus | – | MRC-5, AD169-GFP | – | reference: CC50 over EC50 | selectivity ratio | 112 |
| C=C(c1ccc(C(=O)O)cc1)c1cc2c(cc1C)C(C)(C)CCC2(C)C | COS-7 | – | – | 100 µM, 24 h, 0.1% DMSO, unit not given | reference: control | confluence | 0.34 ± 0.51 |
| CCc1cc(C(=O)NC)c2nccc(N3CCc4c(cc(Cn5ccnc5)cc4-c4cn(C)nc4C(F)(F)F)C3=O)c2c1 | – | – | Sprague Dawley rat, male, plasma | intravenous, 3 mg/kg | – | AUC extrapolated fraction | 0.3% |
| CC[C@H](CO)N(CCN(N=O)[C@H](CC)CO)N=O | Salmonella typhimurium | – | TA1535, methanol | concentration not given, plate incorporation, no S9 | – | lowest mutagenic concentration | 5000 µg/plate |
| O=C(O)c1cc(O)c2c(c1)C(=O)c1cccc(O)c1C2=O | HepaRG co-cultured with HK-2 | MTT | – | 266.67 µM, 24 h | reference: untreated control | cell viability | 58.3 ± 4.87% |
| CN1CCN(C2=Nc3ccccc3Oc3ccc(Cl)cc32)CC1 | Nuclear receptor subfamily 2 group C member 2 ligand-binding domain | SPR imaging | – | – | – | Kd | 6.87 nM |
| O=C(O)C[C@H](O)C[C@H](O)/C=C/c1c(C2CC2)nc2ccccc2c1-c1ccc(F)cc1 | COS-7 | WST-8 | – | 10 µM, 24 h, 0.1% DMSO, unit not given | reference: vehicle control | metabolic activity | 0.88 ± 0.02 |
| CC(NC(=O)c1ccccc1/N=C/c1c(O)ccc2ccccc12)c1ccccc1 (stereo not shown) | OCI-Ly1 | – | – | 0.1 µM, 120 h | – | viability | 113% |
| COc1cccc2c(Nc3ccc4[nH]c(C(=O)N/N=C/c5ccc(SC)cc5)cc4c3)cc(C)nc12 | COS-7 | – | – | 10 µM, 24 h, 0.1% DMSO, unit not given | reference: vehicle control | necrotic cells | 4.66 ± 0.99 |
| Nc1ccn([C@@H]2O[C@H](CO)[C@@H](O)[C@H]2O)c(=O)n1 | Nuclear receptor subfamily 2 group C member 2 ligand-binding domain | SPR imaging | – | – | – | Kd | 0.0348 nM |
| COc1cc2c(c(O)c1OC)C(=O)c1c(cc(C)c(O[C@@H]3O[C@H](CO)[C@@H](O)[C@H](O)[C@H]3O)c1OC)C2=O | HepaRG co-cultured with HK-2 | MTT | – | 33.33 µM, 24 h | reference: untreated control | cell viability | 93.4 ± 22.4% |
| CCN(CC)Cc1cc(Nc2ccnc3cc(Cl)ccc23)ccc1O | COS-7 | WST-8 | – | 100 µM, 24 h, 0.1% DMSO, unit not given | reference: control | metabolic activity | 0.78 ± 0.23 |
